Literature values that unrelated publications cite.
Compare with care: the assays were run in different laboratories. In brackets after ≈: the same amount, converted by molar mass.

Cc1ccncc1NC(=O)Cc1cccc(I)c1 — inhibition (main protease (Mpro); 20 µM): 17.4%
CCN1CCN(C(=O)N[C@@H](C(=O)N[C@@H]2C(=O)N3[C@@H]2SC(C)(C)[C@@H]3C(=O)O)c2ccccc2)C(=O)C1=O — MIC (Escherichia coli; AR0346 colistin resistant): 8 µg/mL (≈ 15.5 µM)
CNC(=NC#N)NCCCCCCCCc1c[nH]cn1 — ED50 (antinociception, hot plate test; rat; intracerebroventricular, 5 min): 81.9 nmol
O=C1N[C@@H]2CCCC[C@H]2N[C@H]1c1c[nH]c2ncccc12 — IC50 (COLO 205; cytotoxicity): > 100 µM
CNC(C)C1CCC(N)C(OC2C(N)CC(N)C(OC3OCC(C)(O)C(NC)C3O)C2O)O1 (centres unmarked) — MIC (Escherichia coli; bacterial growth; colistin-resistant): 0.5 µg/mL (≈ 1.05 µM)
C=CC(=O)Nc1cc(Nc2nccc(-c3cn(C)c4ccccc34)n2)c(OC)cc1N(C)CCN(C)C — median progression-free survival (human, NSCLC patients; 80 mg): 3.6 months
S=C(NC1CCCCC1)N1CCC(c2cnc[nH]2)CC1 — antinociceptive activity (hot plate test; rat; intracerebroventricular, 340 nmol): inactive
O=C(O)c1cc(-c2ccc(/C=C3\SC(=S)N(Cc4ccccc4)C3=O)o2)ccc1Cl — IC50 (eIF4E-eIF4G interaction; inhibitor): 13.5 µM
O=C(Nc1cccnc1)N(CCC1CCCCC1)c1cccc(Cl)c1 — inhibition (main protease (Mpro); 20 µM): 83.3%
NCCc1ccc(Oc2ccc(O)cc2)c(I)c1 — inhibition ([3H]norepinephrine uptake, inhibitor; rat brain synaptosomes; 10 µM): 72.1%
C[C@H]1[C@H](NC(=O)/C(=N\OC(C)(C)C(=O)O)c2csc(N)n2)C(=O)N1S(=O)(=O)O — MIC (Escherichia coli; bacterial growth; colistin-resistant): 8 µg/mL (≈ 18.4 µM)
CCCCCOc1ccc(-c2ccc(-c3ccc(C(=O)N[C@H]4C[C@@H](O)[C@@H](O)NC(=O)[C@@H]5[C@@H](O)[C@@H](C)CN5C(=O)[C@H]([C@@H](C)O)NC(=O)[C@H]([C@H](O)[C@@H](O)c5ccc(O)cc5)NC(=O)[C@@H]5C[C@@H](O)CN5C(=O)[C@H]([C@@H](C)O)NC4=O)cc3)cc2)cc1 — mean clearance (ICU patients; 200/100 mg): 1.3 L/h
NCC[C@H](O)C(=O)N[C@@H]1C[C@H](N)[C@@H](O[C@H]2O[C@H](CN)[C@@H](O)[C@H](O)[C@H]2O)[C@H](O)[C@H]1O[C@H]1O[C@H](CO)[C@@H](O)[C@H](N)[C@H]1O — MIC (Escherichia coli; bacterial growth; colistin-resistant): 2 µg/mL (≈ 3.42 µM)
Cc1ccncc1NC(=O)[C@H](C)OC(F)F — inhibition (main protease (Mpro); 20 µM): 18.9%
NC[C@H]1O[C@H](O[C@H]2[C@H](O)[C@@H](O[C@H]3O[C@H](CO)[C@@H](O)[C@H](N)[C@H]3O)[C@H](N)C[C@@H]2N)[C@H](N)C[C@@H]1O — MIC (Escherichia coli; bacterial growth; colistin-resistant): 1 µg/mL (≈ 2.14 µM)
COc1ccc(C[C@H]2NC[C@H](O)[C@H]2OC(C)=O)cc1 — IC50 (Plasmodium): 0.1 µM
COc1cc(Cl)cc(CC(=O)Nc2cnccc2C)c1 — inhibition (main protease (Mpro); 50 µM): 48.3%
Nc1ccn([C@@H]2O[C@H](CO)[C@@H](O)C2(F)F)c(=O)n1 — 1-year survival rate (metastatic pancreatic cancer patients; dose not given): 18%
N#C/C(=C/c1ccc(O)c(O)c1)C(=O)NCc1ccccc1 — STAT3 activity (hepatitis C virus; HCV-infected cells; concentration not given): decreased
Cc1ccncc1NC(=O)Cc1cccc(F)c1 — inhibition (main protease (Mpro); 20 µM): 39.6%

Excerpt of the above:
Cc1ccncc1NC(=O)Cc1cccc(F)c1 — inhibition (main protease (Mpro); 20 µM): 39.6%
C=CC(=O)Nc1cc(Nc2nccc(-c3cn(C)c4ccccc34)n2)c(OC)cc1N(C)CCN(C)C — median progression-free survival (human, NSCLC patients; 80 mg): 3.6 months
